Measured values gathered from unrelated publications.
Parts stem from different laboratories: compare values within a part only.

Block 1 — technique: protein binding microarray; molecule type: double-stranded DNA, one strand shown; matrix: in vitro; tested at: not given; relative to: not given; direction: higher = stronger binding
Target: Histone acetyltransferase KAT6A, winged helix 2, GST fusion (KAT6A, Homo sapiens, UniProt Q92794, residues 85-181)
Notes: 8-mer, flanks averaged, mean of 2 arrays, mostly near background
Residues (chain): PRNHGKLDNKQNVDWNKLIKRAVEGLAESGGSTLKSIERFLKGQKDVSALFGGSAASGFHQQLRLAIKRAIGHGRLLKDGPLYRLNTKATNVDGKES
Sequence	E-score
TCAATACA	-0.0273
ACCTTTCT	-0.134
AGCCGTGA	0.145
CACGTATA	-0.239
CGCATGCC	0.221
AGTTTCAT	0.136
TAAAAGCA	0.124
AACAGGCT	-0.0976
ACTCGCTG	0.174
CTCACTTA	-0.0457
AAGTGGAA	-0.0332
ACGATAAC	-0.111
CGCGCATC	0.113
GGCAATCA	-0.0324
AGTCTGAA	-0.0621
TGGGGGAA	-0.127
CGGCTGTC	0.0269
CGCTATCA	0.175
ATACGGAG	-0.13
CCTCCCCG	0.19
CTGTCAAA	0.0398
CACGACCA	0.0695
GCTCCGAA	0.26
CAATGCTG	-0.00308
CAATACAG	-0.0516

Block 2 — technique: RNA Bind-n-Seq; molecule type: RNA; matrix: in vitro; tested at: 200 nM; notes: whole 134-nt RNA, ends assumed; together with: 150 mM LiCl; relative to: input library; direction: higher = stronger binding; library: 7-deaza-guanosine replaces G
Target: Ras GTPase-activating protein-binding protein 1, full length (G3BP1, Homo sapiens, UniProt Q13283)
Chain of UniProt Q13283 (whole entry, looked up): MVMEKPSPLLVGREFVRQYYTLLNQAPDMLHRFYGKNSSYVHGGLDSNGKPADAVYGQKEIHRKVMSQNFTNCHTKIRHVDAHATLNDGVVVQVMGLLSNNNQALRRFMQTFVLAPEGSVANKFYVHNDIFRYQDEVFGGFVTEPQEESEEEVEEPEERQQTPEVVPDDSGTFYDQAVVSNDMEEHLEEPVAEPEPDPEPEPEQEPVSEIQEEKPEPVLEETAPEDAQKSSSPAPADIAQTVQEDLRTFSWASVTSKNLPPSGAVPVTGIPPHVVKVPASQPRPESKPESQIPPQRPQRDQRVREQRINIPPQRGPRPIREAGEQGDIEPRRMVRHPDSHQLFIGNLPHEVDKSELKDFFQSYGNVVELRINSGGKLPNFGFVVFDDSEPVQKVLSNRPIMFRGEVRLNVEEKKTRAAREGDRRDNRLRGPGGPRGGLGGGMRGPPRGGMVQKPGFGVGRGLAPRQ
Sequence	log2 enrichment
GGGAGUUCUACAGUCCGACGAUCAGUCCUGUGCUACACAUCGUAUGUACCGAAUCGGGGUUUUGGGUUUUGGGUUUUGGGGAAAGUAUUAUGUUACGCCGUUCGGAUCUGCACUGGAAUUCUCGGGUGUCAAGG	0.523
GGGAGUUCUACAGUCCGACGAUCUGGGAGGUGGAUUUUGUUUAUUUUUUUAGCUCAUUUCCAGGGGUGGGUAUUUUUUUUUAAUAUGUGUCAUGAAUAAAGUUGUUUUUGAAAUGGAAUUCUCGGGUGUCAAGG	0.168
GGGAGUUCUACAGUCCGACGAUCCACAGACAACACGCACCCACACAGACACAGAGGGAAGGGGUUGGGAUGGGGACAGGGUGCACAGCAGGGCGGGGUAGGACCCCAGCACCUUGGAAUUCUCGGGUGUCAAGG	-1.49
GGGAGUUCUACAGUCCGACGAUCUAACUUUAGAGGAGGAUCUGAUGGAUAUGGCAGUGGACGUGGAUUUGGGGAUGGCUAUAAUGGGAAUGGAGGAGGACCUGGAGGUGGCAAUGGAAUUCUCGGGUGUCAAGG	0.132
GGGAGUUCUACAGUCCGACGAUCCACAGGCAACACGCACCCACACAGACACAGAGGGAAGGGGUUGGGAUGGGGACAGGGUGCACAGCAGGGCGGGGUAGGACCCCAGCCCCUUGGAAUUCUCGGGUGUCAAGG	0.258
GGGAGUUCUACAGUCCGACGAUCACCAUGCAGGUGGGCAUCUAAAGGAAGUGGGGCAAGGGGGGGAUAGGGAGGGGGGUAACACUUUGGGAACAGGUGGUCCCAGGUCGUUUCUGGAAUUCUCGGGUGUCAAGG	0.263
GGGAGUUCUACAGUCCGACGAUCAGUCCUGUGCUACACAUCGUAUGUACCGAAUCGGGUUUUUGGGUGGGAAAAAAAGGGAAAGUAUUAUGUUACGCCGUUCGGAUCUGCACUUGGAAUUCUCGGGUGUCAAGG	-0.93
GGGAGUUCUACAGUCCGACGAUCAAGUCCUGUGCUACACAUCGUAUGUACCGAAUCGGGGCCCGGGGCCCGGGCCCGGGGAAAGUAUUAUGUUACGCCGUUCGGAUCUGCACUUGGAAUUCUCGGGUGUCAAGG	-0.742
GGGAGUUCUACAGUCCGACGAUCAAGUCCUGUGCUACACAUCGUAUGUACCGAAUCGGGGUUUGGGUUUGGGUUUGGGGAAAGUAUUAUGUUACGCCGUUCGGAUCUGCACUUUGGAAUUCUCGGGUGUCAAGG	-0.205
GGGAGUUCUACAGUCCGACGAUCGUCCUGUGCUACACAUCGUAUGUACCGAAUCGGGUUUUUUUGGGUUUGGGUUUUUGGGAAAGUAUUAUGUUACGCCGUUCGGAUCUGCACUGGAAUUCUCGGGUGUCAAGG	-0.705
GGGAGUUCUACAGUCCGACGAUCCCUGUGCUACACAUCGUAUGUACCGAAUCGGGUUUUUUUGGGUUUUUUUGGUUUUUUUGGAAAGUAUUAUGUUACGCCGUUCGGAUCUGCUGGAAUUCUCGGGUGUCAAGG	0.936

Block 3 — technique: protein-binding microarray; molecule type: hairpin DNA; matrix: in vitro; tested at: not given; relative to: not given; direction: higher = stronger binding
Target: Interferon regulatory factor 1, DNA-binding domain (IRF1, Homo sapiens, UniProt P10914, residues 1-114)
Notes: whole hairpin DNA, median over replicate spots
Target sequence (chain): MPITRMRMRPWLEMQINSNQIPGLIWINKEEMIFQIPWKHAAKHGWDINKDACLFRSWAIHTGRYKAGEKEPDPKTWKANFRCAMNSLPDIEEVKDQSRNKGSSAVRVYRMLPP
Sequence	median fluorescence
GAGGCCCGCAAGTGAAACGCCTCCTGGCGTTTCACTTGCGGGCCTCACAC	588 a.u.
GAGGCCCGAAAGTGAAACGCCTCCTGGCGTTTCACTTTCGGGCCTCACAC (5mC at 39)	1250 a.u.
GAGGCCCGAAAGCGAAGCGCCTCCTGGCGCTTCGCTTTCGGGCCTCACAC (5mC at 30)	562 a.u.
GAGGCCCGAAAGGGAAACGCCTCCTGGCGTTTCCCTTTCGGGCCTCACAC	576 a.u.
GAGGCCCGAAAGTGACGCGCCTCCTGGCGCGTCACTTTCGGGCCTCACAC	539 a.u.
GAGGCCCGAAAGCGACGCGCCTCCTGGCGCGTCGCTTTCGGGCCTCACAC (5mC at 16)	544 a.u.
GAGGCCCGAAAGTGCAACGCCTCCTGGCGTTGCACTTTCGGGCCTCACAC (5mC at 15)	538 a.u.
GAGGCCCGAAAGCGATACGCCTCCTGGCGTATCGCTTTCGGGCCTCACAC	530 a.u.
GAGGCCCCAAAGCGAAACGCCTCCTGGCGTTTCGCTTTGGGGCCTCACAC	802 a.u.
GAGGCCCGAAAGCGAAACGCCTCCTGGCGTTTCGCTTTCGGGCCTCACAC (5mC at 13)	1070 a.u.
GAGGCCCGAAAGTGGAACGCCTCCTGGCGTTCCACTTTCGGGCCTCACAC (5mC at 32)	540 a.u.
GAGGCCCCAAAGCGAAACGCCTCCTGGCGTTTCGCTTTGGGGCCTCACAC (5mC at 8)	907 a.u.
GAGGCCCGAAAGCCGAACGCCTCCTGGCGTTCGGCTTTCGGGCCTCACAC (5mC at 14 32)	515 a.u.
GAGGCCCGCGAGCGAAACGCCTCCTGGCGTTTCGCTCGCGGGCCTCACAC (5mC at 37)	464 a.u.
GAGGCCCGAAAGTCGAACGCCTCCTGGCGTTCGACTTTCGGGCCTCACAC (5mC at 14 32)	519 a.u.
GAGGCCCGAAAGTGACACGCCTCCTGGCGTGTCACTTTCGGGCCTCACAC	558 a.u.

Block 4 — technique: RNA Bind-n-Seq; molecule type: RNA; matrix: in vitro; tested at: 100 nM; relative to: input RNA pool; direction: higher = stronger binding
Target: RING finger protein unkempt homolog, zinc fingers 1-6, SBP tag (UNK, Homo sapiens, UniProt Q9C0B0, residues 30-357)
Chain of UniProt Q9C0B0 (30-357, looked up): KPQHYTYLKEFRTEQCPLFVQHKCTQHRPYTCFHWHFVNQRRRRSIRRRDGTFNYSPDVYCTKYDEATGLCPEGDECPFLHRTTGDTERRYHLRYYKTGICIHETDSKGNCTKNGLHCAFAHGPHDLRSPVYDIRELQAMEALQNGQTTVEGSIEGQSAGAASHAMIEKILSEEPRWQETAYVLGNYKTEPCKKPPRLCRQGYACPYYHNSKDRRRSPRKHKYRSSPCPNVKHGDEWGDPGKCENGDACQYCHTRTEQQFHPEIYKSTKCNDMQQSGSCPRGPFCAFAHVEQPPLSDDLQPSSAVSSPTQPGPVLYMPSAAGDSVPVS
Notes: RNA with constant flanks, vertebrate orthologous sites, ends assumed
Sequence	bound/input enrichment [ratio]
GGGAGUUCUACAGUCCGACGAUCUAUAAGAACUCUUACAGUCUUAGAUAUUAUAAAAAUAUAUAUCUGAAUUGUAAGAGUUGUUAGCACAAGGUUUUUUUUUUUUUUUUGGCACUUGUUUUGGGUACAAGGCAUUUCUGACAUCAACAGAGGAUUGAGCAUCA	0.412
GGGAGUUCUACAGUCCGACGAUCUUUAAUUGUGACCAGAAAUCACCCCACCUCUGACCCAGCAGGAUGAGAACUAGUGUCUUAUUGCUGUUACCUUUCCAGUGGUCAUUUGUCCUGGUCUAGAGCUUGAGGAAACCAUGUGAACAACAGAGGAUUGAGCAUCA	0.0862
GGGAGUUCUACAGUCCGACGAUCUCGCCCAGUUCAUACCAGCAGCUCCGCUCUCAGACGUGCACAGCUUACAAAGGAACAGUCUAGUGGGAUUUUUAUUUUAAUUUAAAACCUGCUUUUCCCAAAACUGAUCAAGAAGCUACACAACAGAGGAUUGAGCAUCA	0.575
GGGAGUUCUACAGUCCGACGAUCUGUGAGGGUCUACUGACCACUCACUGUUAAUGUCUGGUAUCUGUAAACACCUUUUGUUCUUAGUCUUUUUCUUGUAUAAUUGAUGUUCUUUAAAAUUGUUAAUGUAUAACAGGGCUUAUGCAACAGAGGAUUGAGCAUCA	1.82
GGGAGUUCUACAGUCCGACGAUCCCCAGGAUCCUUUGCCUGGCAGCGUGCAGCACUCUUUGCAGGGCUACCUGCCUGAGGACGACGACGUCUCCUACCAGCAGGAACCCUCGAGACACACACCUGUGCCCAGCAGUCCCGCUGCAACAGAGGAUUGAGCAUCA	0.252
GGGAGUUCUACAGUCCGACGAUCACUCUCAGAUGCAGUGUAUAAGUUAUCCAAGGCAGUCACUUGAGCUUCAUGUAUACUGUUAGUUUUAAAGUCAUUUAUGUUUAUUUAAACUUCUAGAUUGGAUUGUUUCUUAUUGCUCUACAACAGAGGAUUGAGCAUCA	0.949
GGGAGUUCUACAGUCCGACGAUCCUAGUCUUCCACUUAGGGUAAGCCUCAAAUCUAUAGGACUUAUGACAAUUGUAUACCUACCUAGGUUGAGUUUAAUAUUUUUUUAUUGGCCUGUAAAUAGGGAUGACACCUUCUAUAAUACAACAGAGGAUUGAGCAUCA	0.616
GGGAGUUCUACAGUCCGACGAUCAGCAACCCAAGGAUUCAGGACUGGUUUUACAAAUAUACCAAGUAGAUAUGGAACUAACAAUAGAAUUGGACAACCAAGACCAUGAUGUACUAUAAUUUAAUUUAUUUUUAUGAGGAAUAUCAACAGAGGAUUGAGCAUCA	0.641
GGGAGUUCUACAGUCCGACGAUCUACAGGGAAAACUCACAAACUCAAAGGAAAACUAUUAAAGAGUUUCUAAUAGUUAAAAGCUAGGAAAGAUUAGGACAACUUUACAAAUGAGAAAUUAAAAAUAAAACACAGGAAAAAGGACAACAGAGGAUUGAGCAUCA	0.589
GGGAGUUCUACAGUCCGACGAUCAUACCUCCUGAACUUCUAGCUUUUCAGUUGUGGCUAUUUUAGAUACUGGUUUCUUUUCUUUAGAAUUUUCCCAGUUUCCUACCUUCUCUUUUCCCUGUUCCCAAGGUUUGACUCAUGGAUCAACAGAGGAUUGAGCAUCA	0.945
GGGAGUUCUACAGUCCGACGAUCGAAAGUCCCCAUUGUCACUGAGAACCACCAAAUCUGACUUUUACAUUUGGUCUCAGAAUUUAGGUUCCUGCCCUGUUGGGUUUUUUUUUUUUUUUAAACAGUUUUCAAAAGUUCUUAAAGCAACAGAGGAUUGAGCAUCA	1.44

Block 5 — technique: universal PBM; molecule type: double-stranded DNA, one strand shown; matrix: in vitro; tested at: not given; direction: higher = stronger binding
Target: Sal-like protein 4, full length isoform B (SALL4, Homo sapiens, UniProt Q9UJQ4-2, residues 1-616)
Notes: 8-mer, flanks averaged, mean of replicates
Target sequence (chain): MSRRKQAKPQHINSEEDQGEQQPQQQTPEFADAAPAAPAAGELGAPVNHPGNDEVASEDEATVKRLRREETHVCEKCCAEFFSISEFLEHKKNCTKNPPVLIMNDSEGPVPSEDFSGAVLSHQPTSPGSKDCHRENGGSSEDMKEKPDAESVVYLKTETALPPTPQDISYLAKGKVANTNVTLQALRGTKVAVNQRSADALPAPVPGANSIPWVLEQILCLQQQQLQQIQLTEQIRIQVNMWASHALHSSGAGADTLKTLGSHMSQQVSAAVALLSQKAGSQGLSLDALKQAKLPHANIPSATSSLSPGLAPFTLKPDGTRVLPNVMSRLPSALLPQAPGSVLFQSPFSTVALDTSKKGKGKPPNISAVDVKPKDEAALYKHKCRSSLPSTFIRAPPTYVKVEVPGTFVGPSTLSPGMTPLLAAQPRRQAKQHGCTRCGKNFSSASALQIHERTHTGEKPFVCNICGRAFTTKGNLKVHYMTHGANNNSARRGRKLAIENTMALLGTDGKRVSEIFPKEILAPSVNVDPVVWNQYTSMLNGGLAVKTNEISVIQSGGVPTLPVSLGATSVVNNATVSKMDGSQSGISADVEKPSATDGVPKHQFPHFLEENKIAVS
Sequence	E-score
TCCAAAAA	0.26
TATTCCCA	0.188
ACCCTTCA	0.0332
GATGGTCC	-0.106
AAGTGTTA	0.225
GAATTAGC	0.0307
ATACTCCA	0.161
AATTAAAC	0.247
ATTGACAA	0.198
GCCTCCAA	-0.136
CGGGAGTA	-0.0508
AGTTGATG	0.171
ATAGTTTC	0.21
CTCAACCA	-0.0804
ATGCATGG	0.0969
CACCTGAG	-0.0441
CGTATTTA	0.24
CCTTTAAC	0.099
